Results pooled from the literature.
Every numbered part comes from another study and shows a few of its results, in no order.

Set 1
Target: Sal-like protein 4, full length isoform B (SALL4, Homo sapiens, UniProt Q9UJQ4-2, residues 1-616)
Method: universal PBM
Molecule type: double-stranded DNA, one strand shown
Matrix: in vitro
Tested at: not given
Notes: 8-mer, flanks averaged, mean of replicates
Direction: higher = stronger binding
Sequence | E-score
GACCGGTC | -0.255
GAGCAACA | -0.105
AGGGCTCG | -0.211
TGCTGTAA | 0.157
GGCAGCGA | -0.258
CATCCATG | -0.00048
CTAACAGC | -0.0841
CGCCCCTC | -0.461
GTACAGGA | -0.0907
AAGGAACG | -0.0275
GTAATTGA | 0.174
CGTCTTAC | -0.0116
ATGGGAAC | 0.0857
CGTTACCC | -0.172
GCTGATTA | 0.0804
AGCGCGAA | -0.142
GCGTCTGA | -0.18
CGAGCCAG | -0.118
GGCAAGTA | -0.0135
ACAGATCG | -0.106
CATACTCG | 0.00622
TGGAGCCA | -0.155
AACAGAGC | -0.158
ACAACGCC | -0.0154
CAGGATTA | 0.116

Set 2
Target: Prothrombin, mature alpha-thrombin (F2, Homo sapiens, UniProt P00734)
Method: aptamer microarray, sandwich
Molecule type: DNA with 2'F-ANA
Matrix: in vitro
Tested at: 200 nM
Notes: whole 15-mer aptamer, many near background
Together with: Cy3 exosite-II aptamer, 400 nM
Direction: higher = stronger binding
Sequence: GGTTGGTGTGGTTGG
Modification | mean fluorescence intensity
2'F-ANA at 4 5 6 9 10 12 13 14 | 87.9 a.u.
2'F-ANA at 7 8 10 14 15 | 135 a.u.
2'F-ANA at 1 6 9 11 12 13 | 225 a.u.
2'F-ANA at 1 6 12 14 15 | 70.5 a.u.
2'F-ANA at 1 2 3 6 7 8 15 | 281 a.u.
2'F-ANA at 2 3 4 10 13 14 15 | 180 a.u.
2'F-ANA at 3 4 6 7 9 11 13 14 15 | 217 a.u.
2'F-ANA at 1 2 4 5 6 7 8 10 11 12 | 92.7 a.u.
2'F-ANA at 3 4 5 7 8 10 11 13 14 | 46.7 a.u.
2'F-ANA at 2 6 7 9 11 14 15 | 106 a.u.
2'F-ANA at 1 2 4 5 7 11 12 13 14 | 49 a.u.
2'F-ANA at 4 6 7 9 10 11 15 | 91.2 a.u.
2'F-ANA at 1 3 7 8 9 13 14 15 | 179 a.u.
2'F-ANA at 2 3 5 7 9 10 11 12 14 15 | 51.4 a.u.
2'F-ANA at 1 2 3 4 5 6 10 11 12 13 14 15 | 47.7 a.u.
2'F-ANA at 2 3 6 10 11 13 14 15 | 206 a.u.
2'F-ANA at 1 2 3 4 8 9 11 12 13 14 15 | 68.4 a.u.
2'F-ANA at 2 3 5 10 13 14 15 | 89.7 a.u.
2'F-ANA at 2 3 4 5 9 12 13 15 | 115 a.u.
2'F-ANA at 1 2 4 9 11 | 221 a.u.
2'F-ANA at 1 2 4 7 10 12 15 | 63.9 a.u.
2'F-ANA at 3 4 6 12 | 979 a.u.
2'F-ANA at 3 7 8 12 13 14 15 | 817 a.u.
2'F-ANA at 1 5 6 7 8 9 12 13 14 | 56.5 a.u.
2'F-ANA at 4 6 8 10 11 12 14 | 55 a.u.

Set 3
Target: RNA binding protein fox-1 homolog 2, RRM domain, GST-SBP tag (RBFOX2, Homo sapiens, UniProt O43251-10, residues 100-194)
Method: RNA Bind-n-Seq
Molecule type: RNA
Matrix: in vitro
Tested at: 365 nM
Notes: natural RNA segment, single round, ends assumed
Baseline: no-protein control
Direction: higher = stronger binding
Shared flanks, not repeated: GGGAGUUCUACAGUCCGACGAUC … UGGAAUUCUCGGGUGCCAA
Target sequence (chain): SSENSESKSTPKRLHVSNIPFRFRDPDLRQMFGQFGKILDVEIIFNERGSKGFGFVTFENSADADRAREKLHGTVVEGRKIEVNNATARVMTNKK
Sequence | RBNS enrichment (R)
CACUGAAUAAAAACCUCCUGAACUGGGAACAAAGAUCUACAGGCAAGCAAGAUGCCCACACAACAGGCUUAUUUUCUGUGAAGGAACCAACUGAUCUCCCCCACCCUUGG | 0.741
CUUAGUCAUGGUGUUGCGUAAAUCAUAUUUUAGCUGCACGGCAUUACCCCACACAGGGUGGCAGAACUUGAAGGGUUACUGACGUGUAAAUGCUGGUAUUUGAUUUCCUG | 0.464
CAAGUACUAUUAUUCCAUACUACUAUAUUCUUCCAAAUAUUUGGAACACUCUUAGAAUUCCCAUUUAAUAAACCAUAUGAGAAAACCCUCUAUUACUCUUACACUUUAGU | 0.666
GCCCUUGGGUGCCAGCUCAGUGGGUGUGGGGAUCACAUGAGGUGGCUCAUGAGGACACACUCUGGAAGUCGAGGGGCUGCCACGUGCAGAGGAAGUUCCCGGCCUGGGGG | 0.448
UCUAGCUACAGAGUCCAGGCCACUGGACCAGCCAACAUCUGGGCUGCUGCAGGGAGGCCUGGCCUAUUUUUUCUUAAAACAUAUUUUAUAAAACUACAACCUGAUCUACC | 0.574
CACUUUUCAUAUUCUUAAAAUAAUCUUCACUUCUGUUAAGAAGAACAUGUUGGUGGGUAAUUAUGCGAAUGUUUCCCUGUCCCUGAUUUCUCGAUUAGGCGUAUGGGUUU | 0.303
UUUAAUUGUGGAAAAUGAUUAUGAAGAACAUGUGUAUUUCUAUCUGGUAGUGAUGUAUAUUUUACAUUUGUCAUUUCAGUGUUACUGGAGUUUUCUUCAUUGUGCACACA | 0.699
UCAAGCACUGACACUCAUUACCGUCUGUGAUUGCCAUUUCUUCCCAAGGCCAGUCUGAACCUGAGGUUGCUUUAUCCUAAAAGUUUUAACCUCAGGUUCCAAAUUCAGUA | 0.296
AAAGGCCACCUGUCCCACUCCUACGAUACGCUACUAUAAAGAGAAGACGAAAUAGUGACAUAAUAUAUUCUAUUUUUAUACUCUUCCUAUUUUUGUAGUGACCUGUUUAU | 0.271
AAUCUCUUGCACCACCUAUUCUUACUUCCUGUUCAGCUCCUUUACAGCUUUUAUUUUCAACUGCUUCCCAACUUGGUGGGGCCUCCUUUAAGGAUGAGCCAAUAGUAAGA | 0.702
GUGAAGCGUAAACAUUUAUCCUAUGUGGUUUCUCCUUAGACCUUGGGGUCAUGGUUCAGCAGAGGUUACAUAGGAGCAAAUGGUUCUCAAUUUUCCAGUUUGAUUGAAGU | 0.326
UCUGCAUGAAGUAGGGACCCCACACUAGAUAACCCCUCUUGUAAAGUAUGAGCCCAUCUCACUGGGCUAUCUGACUCUCCACCCUCCUUGUUAGUCUCUGAGGAACAGUG | 1.87

Set 4
Target: RING finger protein unkempt homolog, zinc fingers 1-6, GST-SBP tag (UNK, Homo sapiens, UniProt Q9C0B0, residues 30-357)
Method: RNA Bind-n-Seq
Molecule type: RNA
Matrix: in vitro
Tested at: not given
Notes: RNA with constant flanks, human-mouse chimeric sites, ends assumed
Baseline: input RNA pool
Direction: higher = stronger binding
Shared flanks, not repeated: GGGAGUUCUACAGUCCGACGAUC … CAACAGAGGAUUGAGCAUCA
Target sequence (chain): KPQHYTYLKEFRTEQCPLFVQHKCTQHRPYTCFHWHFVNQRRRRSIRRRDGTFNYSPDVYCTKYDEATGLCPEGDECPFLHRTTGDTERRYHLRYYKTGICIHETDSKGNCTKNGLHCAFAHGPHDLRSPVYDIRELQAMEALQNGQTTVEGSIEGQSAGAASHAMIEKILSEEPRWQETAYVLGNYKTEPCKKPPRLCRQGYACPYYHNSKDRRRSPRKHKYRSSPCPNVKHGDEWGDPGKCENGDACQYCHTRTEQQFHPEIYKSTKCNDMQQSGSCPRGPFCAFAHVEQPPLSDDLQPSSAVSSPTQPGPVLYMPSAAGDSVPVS
Sequence | bound/input enrichment [ratio]
GACUUUGGGACUGGUCCUCGCAACGCAGCCUACUAUAGCCCUCAUGGACAUAUAUUAGUAUUAGCUGGAUUUGGAAAUCUUCGAGGACAAAUGGAAGUAUGGGAUGUUAAAAACUACAAG | 0.587
GGACCAUAAUCAUGGAGGACAUAAUGCAGCUCCCCAAGUCGCGCAUCAACGCCAGCAUGUUACCACAGUAUAUCGACCGGCCCGUGUGCUUCGUGGGGAAGCUGGAAAAGAUUCAUCCCA | 0.0771
AAGCAACGCAAACUUGAAACAAUUCGUUUUACAAAAACCUCAGUGUUCACUUGCUUGGCGAUAGCAUUGGGGUUUUAUAGGUUCUGGAAGGAGAACUGACGAUGAUGCUGCCGCUGCUGC | 0.271
CGCUGGCCCAAGCUGAUGGACUCUGAUGGCCUCCAUCUCUCAGGCACGUGUGCCUUCUCUUAGUCCCUGUUUUCGGGAUGUUAUGAACAGUAUCAUGGUGGUUUGAAAGCAGUUAUGUUG | 0.214
GACUUGGGACCGUCCUGGGCUAGUACAAAUAGCGGCAGUGGAGGCUCGAGAGGAAAGUUUGUUAGUGGAGGCAGUGGAGAGGUCGUCCAUGUACGGUCCUUUACUCGAUAGAUGUGUUCU | 0.661
AAUUUCCUGUCAUACUUUUUAGACAUUCACAUCAGACUUACAGAGCACCUGGCCACAUUCUAGGUUUGAAUUAUUUCUCAGCUAUGGAUAUGAUCAAAUGAGAACACUGCUUAACUAAUG | 0.769
UGUGAACUGUCUCUUGAGAUCUAAAAACAAGAUGACUUUUCCUGGCACAUAUUCCAAAGCAAAGACUUUGUUACCUGCUGCUUAUUGUCUAAUUUACAGGGAUAUUUAAUUUUGUAAGGU | 0.169
GGACCAUAAUCAUGGUGGACAUAAUGCAGCUCCCCAAAGCGCGCGUCAACGCCAGCAUGUUACCACAGUAUAUCGACCGGCCCGUGUGCUUCGUGGGGAAGCUGGAAAAGAUUCAUCCCA | 0.124
GAUGAUAAUCACACAAACAAGUCACUGUUAUGUGACCAGCCUUGGGAUUCUUUUCCUGAUUAAUAUUCUCCCUGGAACCACUGGUCAAGGGGAAUCAAGACGACAAGAACCCGGGGACUU | 0.144
UCGGAUGCUGUGCUGGGUCACUUUCCGUAUCCAGAUCCUUCACAGUGGACAGAUGAAGAACUGGGAAUCCCUCCUGAUGACGAGGACUGACACUGUAAACUCUCUGGACGAGUAGGAGCA | 0.683
GUGCCCUUCUCGCUGCUGCGGAGCCCGAGCUGGGAACACCCCUUCCGCUGGUACCCUGCACACAGCCGCCUCUUCGAUCAAGCUUUCGGGCUGCCCCGGUUGCCCGAUGAGUGGUCGCAG | 0.155

Set 5
Target: Histone acetyltransferase KAT6A, winged helix 1, GST fusion (KAT6A, Homo sapiens, UniProt Q92794, residues 1-85)
Method: protein binding microarray
Molecule type: double-stranded DNA, one strand shown
Matrix: in vitro
Tested at: not given
Notes: 8-mer, flanks averaged, mean of 2 arrays, mostly near background
Baseline: not given
Direction: higher = stronger binding
Construct (chain): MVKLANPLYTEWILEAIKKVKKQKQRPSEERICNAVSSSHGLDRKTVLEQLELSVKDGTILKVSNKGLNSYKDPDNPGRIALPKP
Sequence | E-score
CCGGACGA | -0.0246
CCCTTCCA | -0.117
GACCTATA | -0.0767
GGCCTTTA | 0.156
GAGTCTGC | -0.115
CATTTTAA | -0.0215
CAATATCG | 0.0287
CACGTGGC | -0.0331
AACGGCCA | 0.255
AAAGCTCA | -0.209
GGAATTCC | -0.0725
CAACGCTG | 0.0628
AACCGTTA | 0.0647
CATTATGG | 0.0181
CAGACCCC | -0.0956
AATTGAGG | -0.177
GGTCAGTA | 0.133
ACCCGCCC | 0.335
ATGAAATA | -0.228
CCCATCGG | 0.103
CGATGGCG | 0.277
AGGTAGCC | -0.0738
AGTCCAAG | -0.0873

A few entries again (set 2):
Modification | mean fluorescence intensity
2'F-ANA at 1 6 12 14 15 | 70.5 a.u.
2'F-ANA at 1 5 6 7 8 9 12 13 14 | 56.5 a.u.
2'F-ANA at 3 4 6 7 9 11 13 14 15 | 217 a.u.
2'F-ANA at 1 2 4 9 11 | 221 a.u.
2'F-ANA at 3 7 8 12 13 14 15 | 817 a.u.
2'F-ANA at 1 2 4 5 7 11 12 13 14 | 49 a.u.
